# Published values from different studies.
# A part holds a random share of what one study measured. Substitutions count along the parent as printed.

# Block 1 — read-out: binding; technique: radioligand binding; concentration: 10 µM
# Target: Kappa-type opioid receptor (OPRK1, Homo sapiens, UniProt P41145)
# UniProt P41145, sequence (whole entry, looked up): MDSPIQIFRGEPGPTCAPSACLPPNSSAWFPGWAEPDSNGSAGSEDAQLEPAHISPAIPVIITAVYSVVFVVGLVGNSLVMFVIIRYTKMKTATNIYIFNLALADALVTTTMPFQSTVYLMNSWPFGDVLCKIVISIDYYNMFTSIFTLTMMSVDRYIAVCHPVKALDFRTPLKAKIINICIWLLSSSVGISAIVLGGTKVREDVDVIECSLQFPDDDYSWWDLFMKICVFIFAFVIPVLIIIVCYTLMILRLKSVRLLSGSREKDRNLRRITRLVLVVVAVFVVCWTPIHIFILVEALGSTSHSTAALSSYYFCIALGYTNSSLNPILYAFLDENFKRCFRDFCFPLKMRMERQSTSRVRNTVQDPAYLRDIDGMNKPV
Structure (SMILES),inhibition [%]
CN(C)C(=O)Cn1cc(-c2nc([C@@](C)(c3ccc(-c4cnc(N)nc4)cc3)C3CC3)no2)cn1,33.9
Nc1c(C(=O)NCc2ccc(C(=O)NCCCC3CCCCC3)cc2)cnn1-c1ccccc1,38.6
CC(C)(O)c1cncc(-c2nc3ccc(F)cc3n2C2CC2)c1,-8.65
CC(=O)Nc1c(F)cc(C(=O)N[C@H]2CC[C@H](O)CC2)cc1O[C@@H](C)c1ccccc1,9.38
O=C([C@H]1C[C@H](O)CN1c1ccc(Cl)cc1)N1CC2COCC(C1)N2Cc1ccc(Cl)cc1,18.7
CCOC(=O)c1cc2cc(-c3cc(C(=O)NCc4ccc(C(=O)O)cc4)nn3C)ccc2[nH]1,27.2
COCCc1ccc(-c2c(C)nc3c(N4CCOCC4)ccnn23)cn1,14.5
CN([C@@H]1CCc2c(CC(=O)O)c3cc(S(C)(=O)=O)ccc3n2C1)S(=O)(=O)c1ccc(F)cc1,-13.1
Cc1cc(C)c(-n2ccn3nc(-c4cccnc4)cc23)cc1NC(=O)c1cc(C#N)cc(S(F)(F)(F)(F)F)c1,89.4
Cc1nc(N2CC[C@@H](O)C2)ncc1-c1cc(C(F)(F)F)cc2[nH]ncc12,7.69
CNC(=O)c1cc(C(=O)NC2CC2)cn(Cc2ccccc2)c1=O,39.9
O=C1CCc2cc(Nc3cc(OC4CCOCC4)c([N+](=O)[O-])cc3Cl)ccc2N1,12.4
CNC(=O)c1ccc(Nc2ncc(C(F)(F)F)c(NCc3nccnc3N(C)S(C)(=O)=O)n2)cc1,10.8
Cc1nccc(COC(=O)N2C[C@@H]3[C@@H](CNC(=O)c4ccc5[nH]nnc5c4)[C@@H]3C2)n1,9.47

# Block 2 — target: CCND2, cyclin fold, Cln2 fusion (human); technique: yeast growth competition, sequencing; medium: yeast; setting: weak parent motif; reference: not given; direction: higher = stronger binding
# Parent: viral docking peptide; PTARRRLLHDLDT; partner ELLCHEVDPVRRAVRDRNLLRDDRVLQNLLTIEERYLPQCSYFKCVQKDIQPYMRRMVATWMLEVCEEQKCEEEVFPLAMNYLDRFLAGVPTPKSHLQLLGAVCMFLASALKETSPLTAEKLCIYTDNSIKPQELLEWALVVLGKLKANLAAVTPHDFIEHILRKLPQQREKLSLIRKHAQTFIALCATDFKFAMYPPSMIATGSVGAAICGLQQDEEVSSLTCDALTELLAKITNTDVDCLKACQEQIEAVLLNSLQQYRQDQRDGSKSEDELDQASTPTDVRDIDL
Substitution,normalised enrichment score
PTAARRLLHDLDT [R4A],0.0134
PTARRRLFHDLDT [L8F],0.3
PTARRRLLFDLDT [H9F],1.74
PTARARLLHDLDT [R5A],-0.071
PTARKRLLHDLDT [R5K],-0.267

# Block 3 — read-out: binding; technique: phage display NGS; molecule type: peptide; reference: input library
# Target: UDP-N-acetylglucosamine--peptide N-acetylglucosaminyltransferase 110 kDa subunit (OGT, Homo sapiens, UniProt O15294)
# Residues (O15294 1-1046): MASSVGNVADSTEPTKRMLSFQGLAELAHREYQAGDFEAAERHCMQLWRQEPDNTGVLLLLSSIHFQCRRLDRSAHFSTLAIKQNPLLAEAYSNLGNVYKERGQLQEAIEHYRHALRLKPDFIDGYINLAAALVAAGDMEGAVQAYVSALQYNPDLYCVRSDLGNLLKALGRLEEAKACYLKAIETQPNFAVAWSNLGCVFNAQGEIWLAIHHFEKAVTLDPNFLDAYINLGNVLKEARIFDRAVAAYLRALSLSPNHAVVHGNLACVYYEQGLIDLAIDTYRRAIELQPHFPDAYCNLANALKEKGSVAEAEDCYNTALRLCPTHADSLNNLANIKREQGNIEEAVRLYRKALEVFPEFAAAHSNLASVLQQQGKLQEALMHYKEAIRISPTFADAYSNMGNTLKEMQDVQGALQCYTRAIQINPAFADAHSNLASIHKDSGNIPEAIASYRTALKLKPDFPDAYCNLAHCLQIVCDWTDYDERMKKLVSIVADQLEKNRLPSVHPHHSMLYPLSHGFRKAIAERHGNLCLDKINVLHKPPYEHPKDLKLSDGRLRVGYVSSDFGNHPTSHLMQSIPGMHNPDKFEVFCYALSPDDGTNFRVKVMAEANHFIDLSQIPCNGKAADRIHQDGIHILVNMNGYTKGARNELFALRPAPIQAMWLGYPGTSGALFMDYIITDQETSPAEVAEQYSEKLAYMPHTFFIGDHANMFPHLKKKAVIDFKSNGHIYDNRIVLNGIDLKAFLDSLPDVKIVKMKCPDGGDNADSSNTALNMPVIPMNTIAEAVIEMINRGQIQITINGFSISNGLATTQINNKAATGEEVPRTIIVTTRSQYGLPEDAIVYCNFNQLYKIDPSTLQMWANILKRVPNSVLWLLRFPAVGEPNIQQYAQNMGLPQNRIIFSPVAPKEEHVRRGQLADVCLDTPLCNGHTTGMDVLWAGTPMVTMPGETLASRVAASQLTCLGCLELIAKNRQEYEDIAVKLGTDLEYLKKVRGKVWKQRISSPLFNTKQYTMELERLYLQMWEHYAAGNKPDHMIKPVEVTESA
Sequence,minimum log2 enrichment ratio
TKMNHHETTSEYLH,1.63
SYMPVYQIDYTPAV,5.46
AWAQWQHRTYTSHMD,1.49
VGMNQNAYMPMYQIH,3.37
TSQLQPFYLIQYSHR,1.88
WVNVPHYQVFLHEHH,2.61
FIPYSPFYQIESSRY,0.966
HTQTHWIPHEIRHV,3.29

# Other studies, line by line
SMILES,target,read-out,action,concentration,setting,measurement,value
O=C(NCCCNc1nc(Nc2cccc(NC(=O)N3CCCC3)c2)ncc1I)c1cccs1,chymotrypsin,enzyme activity,inhibitor,10 µM,with DTT,inhibition,21.2%

# Repeated from above (block 3):
Sequence,minimum log2 enrichment ratio
VGMNQNAYMPMYQIH,3.37
TSQLQPFYLIQYSHR,1.88
